Assay results gathered from unrelated publications.
A part holds a random share of what one study measured. Changes are numbered by the printed parent chain.

Sample 1 — technique: protein-binding microarray; molecule type: double-stranded DNA, one strand shown; matrix: in vitro; tested at: 940 nM top; setting: 60-bp whole probe; together with: salmon DNA 0.4 mg/ml; reference: random background probes; reading: higher = stronger binding; shared flanks, not repeated: GCCTAGCAC … GTCTTGATTCGCTTGACGCTGCTG
Target: Interferon regulatory factor 5, full length, phosphomimetic (IRF5, Homo sapiens, UniProt Q13568-2, residues 1-514, S451D/S453D/S456D/S462D)
Oligonucleotide | fitted relative affinity [z-score]
TTAGGTATCCTTTTACTTTAGTGCTAG | 0.75
GACGGTCTCCTTATCCTGTCGTGCTAG | 1.36
TTAGGATTGGGACTGGGTTAGTGCTAG | -0.422
TCAGGACTGACTCTTCAGACTGTGCTA | -0.401
GACGGCATCGGTTTCGGGACGTGCTAG | 2.76
TTAGTACTGAGTATCGATTAGTGCTAG | 4.38
TTAGGTATCCTTCTCCTCTAGTGCTAG | 0.673
GACGGTATCGGGACTGCGGACGTGCTA | 3.09
TTATATACCTGTATATCTTCGTGCTAG | 0.05
TCAGTTCTCCCTTTCAGTTTGTGCTAG | 1.6
CTGATTTCCACTTTCTTAATGTGCTAG | 1.9
GACGATTTCGGGTTTCGAAACGTGCTA | 3.22
TTAGCTCTCAGTCTCGATTAGTGCTAG | 3.71
GACGGTTTCGGACTGGGGAAGTGCTAG | 6.6
CTCTAACTCAAGATTCCTCTCGTGCTA | 0.639
TCAACTCTTTACATGGGACTGTGCTAG | 0.619
TCAATCTTCACTCTTAATTAGTGCTAG | 0.795
TTAGAACTGAGTCTTGATTAGTGCTAG | -0.194
TTAGGTATCGGGTATCGGTCAGTGCTA | 7.03
CCCTTACCGCATATCGGGGTGTGCTAG | -0.277
TCATTTCTCCCAAGTCTTACTGTGCTA | 1.31
GACTGTATCGGGTTTCGGGACGTGCTA | 3.05
TCAGATATCAGTATCGATTAGTGCTAG | 4.85
TCAGTTTCCATTTTCTGACTGTGCTAG | 2.92
CAGAAGTTCATGTTCAACCAGTGCTAG | -0.165

Sample 2 — technique: DHFR PCA, deep sequencing; matrix: yeast; together with: (+)-ABA 0 µM; reference: wild-type fitted maximum; reading: higher = stronger binding
Target: ABI1, truncated, D143A, DHFR fusion (Arabidopsis thaliana)
Setting: methotrexate growth selection, single substitutions
Starting sequence: PYL1, truncated, DHFR fusion (Arabidopsis thaliana); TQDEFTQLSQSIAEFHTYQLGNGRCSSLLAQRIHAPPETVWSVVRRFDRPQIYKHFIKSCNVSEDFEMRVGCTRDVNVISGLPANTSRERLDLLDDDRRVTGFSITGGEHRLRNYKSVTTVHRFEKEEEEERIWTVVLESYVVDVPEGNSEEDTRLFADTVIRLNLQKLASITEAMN; partner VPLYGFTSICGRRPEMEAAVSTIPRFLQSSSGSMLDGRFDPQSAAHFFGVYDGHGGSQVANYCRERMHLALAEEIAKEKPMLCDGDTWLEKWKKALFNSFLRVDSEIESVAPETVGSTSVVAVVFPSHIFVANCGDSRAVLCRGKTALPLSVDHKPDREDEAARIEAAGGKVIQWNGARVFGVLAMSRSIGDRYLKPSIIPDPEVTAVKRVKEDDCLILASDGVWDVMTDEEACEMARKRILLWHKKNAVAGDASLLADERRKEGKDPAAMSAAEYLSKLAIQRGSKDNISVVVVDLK
Change | relative binding score [%]
Y141F | -5.16
V136F | -6.71
Q51D | 20.7
E152I | -4.04
R98F | -6.5
L29V | 29.5
N22M | 16
S27R | -0.214
Q167V | 5.4
I57Y | -9.37

Sample 3 — technique: RNA Bind-n-Seq; molecule type: RNA; matrix: in vitro; tested at: 200 nM; setting: whole 134-nt RNA, ends assumed; together with: 150 mM KCl; reference: input library; reading: higher = stronger binding
Target: Ras GTPase-activating protein-binding protein 1, full length (G3BP1, Homo sapiens, UniProt Q13283)
Sequence of UniProt Q13283 (whole entry, looked up): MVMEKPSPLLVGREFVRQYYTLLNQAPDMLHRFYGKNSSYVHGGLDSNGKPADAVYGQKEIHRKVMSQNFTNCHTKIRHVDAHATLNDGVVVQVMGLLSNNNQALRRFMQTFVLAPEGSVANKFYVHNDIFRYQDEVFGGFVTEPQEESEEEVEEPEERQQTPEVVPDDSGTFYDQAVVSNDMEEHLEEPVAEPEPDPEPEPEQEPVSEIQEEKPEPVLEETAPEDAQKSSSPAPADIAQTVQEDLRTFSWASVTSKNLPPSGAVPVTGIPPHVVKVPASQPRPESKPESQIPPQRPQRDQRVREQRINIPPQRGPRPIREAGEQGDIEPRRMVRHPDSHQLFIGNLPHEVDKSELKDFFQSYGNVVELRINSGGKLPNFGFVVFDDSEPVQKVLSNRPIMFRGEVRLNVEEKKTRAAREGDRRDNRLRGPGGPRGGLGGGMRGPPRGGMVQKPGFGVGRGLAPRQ
Shared flanks, not repeated: GGGAGUUCUACAGUCCGACGAUC … UGGAAUUCUCGGGUGUCAAGG
Oligonucleotide | log2 enrichment
UAACUUUAGAGGAGGAUCUGAUGGAUAUGGCAGUGGACGUGGAUUUGGGGAUGGCGAUAAUGGGUAUGGAGGAGGACCUGGAGGUGGCAA | 0.321
UCCUGUGCUACACAUCGUAUGUACCGAAUCAAAUUUUUAAACCCCCAAACCCCCCCAAAAAAGUAUUAUGUUACGCCGUUCGGAUCUGCA | 0.108
UGGCCCUGGUGGCAUGCGGGGAGGAAGAGGUGGCCUCAUGGAUCGUGGUGGUCCCGGUGGAAUGUUCAGAGGUGGGCGUGGUGGAGACAG | 0.762
UCAAGUCCUGUGCUACACAUCGUAUGUACCGAAUCGGGCCCGGGCCCGGCCCGGGAAAGUAUUAUGUUACGCCGUUCGGAUCUGCACUUC | -1.19
AGUCCUGUGCUACACAUCGUAUGUACCGAAUCGGGAGGGUUUUUGGGUUUUUUUGGGAAAGUAUUAUGUUACGCCGUUCGGAUCUGCACU | -0.387
AAGUCCUGUGCUACACAUCGUAUGUACCGAAUCGGGGAAAGGGGUGGGGAAAGGGGAAAGUAUUAUGUUACGCCGUUCGGAUCUGCACUU | 0.457
AGUUCUAUCUCUGGGGUGACUGCCGCAUAUAACCGAGAACAGCUGUGGCUGGCCAAUGAAGGCCUGAUCACCAGGCUGCAGGCUCGCUGC | -0.708
UGGGAGGUUGAUUUUGUUUAUUUUUUUAGCUCAUUUCCAGGGGUGGGAAUUUUUUUUUAAUAUGUGUCAUGAAUAAAGUUGUUUUUGAAA | -0.104
AAGUCCUGUGCUACACAUCGUAUGUACCGAAUCAAACCCCCAAACCCAAACCCAAAAAAGUAUUAUGUUACGCCGUUCGGAUCUGCACUU | -0.603
UGGCCCUGGUGGCAUGCGGGGAGGAAGAGGUGGCCUCAUGGAUCGUGGUGGUCCCGGUGGAAAGUUCAGAGGUGGCCGUGGUGGAGACAG | 0.204

Sample 4 — target: BIRC6 UBC core domain (UniProt Q9NR09); technique: yeast two-hybrid; matrix: yeast; setting: mostly zero background; reference: not given; reading: higher = stronger interaction
B1: SYTL4 RING domain (UniProt Q96C24); chain RGSQHYSDRTCARCQESLGRLSPKTNTCRGCNHLVCRDCRIQESNGTWRCKVCAKEIELKKAT
B2: RFWD3 RING domain (UniProt Q6PCD5); chain ASMDEEEGDTCTICLEQWTNAGDHRLSALRCGHLFGYRCISTWLKGQVRKCPQCNKKARHSDIVV
B3: RNF121 RING domain (UniProt Q9H920); chain MPTKHLSDSVCAVCGQQIFVDVSEEGIIENTYRLSCNHVFHEFCIRGWCIVGKKQTCPYCKEKVDLKRMFS
B4: ZMIZ2 RING domain (UniProt Q8NF64); chain GTIPGTPGPNGEDGVEQTAIKVSLKCPITFRRIQLPARGHDCRHIQCFDLESYLQLNCERGTWRCPVCNKTALLEGLEVDQYMLGILIYIQNSDYEEITIDPTCSWK
B5: DZIP3 RING domain (UniProt Q86Y13); chain PDEEEEEEEPCVICHENLSPENLSVLPCAHKFHAQCIRPWLMQQGTCPTCRLHVLLPEEFP
B6: SH3RF1 RING domain (UniProt Q7Z6J0); chain DESALLDLLECPVCLERLDASAKVLPCQHTFCKRCLLGIVGSRNELRCPECRTLVGSGVEEL
Molecule | lacZ reporter activity
AMYLQENGIDCPKCKFSYALARGGCMHFHCTQCRHQFCSGCYNAFYAKNKC (RNF31 RING domain (UniProt Q96EP0)) | 0
B1 (SYTL4 RING domain) | 0
B2 (RFWD3 RING domain) | 0
KETIKKTTKPCPRCHVPVEKNGGCMHMKCPQPQCRLEWCWNCGCEWNRVCMG (PRKN RING domain (UniProt O60260)) | 0
B3 (RNF121 RING domain) | 0
B4 (ZMIZ2 RING domain) | 0
NLSELTPYILCSICKGYLIDATTITECLHTFCKSCIVRHFYYSNRCPKCNIVVHQTQPLY (PCGF6 RING domain (UniProt Q9BYE7)) | 0
B5 (DZIP3 RING domain) | 0
B6 (SH3RF1 RING domain) | 0
KLRKLKEAMLCMVCCEEEINSTFCPCGHTVCCESCAAQLQSCPVCRSRVEHVQHVY (MYLIP RING domain (UniProt Q8WY64)) | 0
PEDRESLKSACVVCLSSFKSCVFLECGHVCSCTECYRALPEPKKCPICRQAITRVIPLY (MUL1 RING domain (UniProt Q969V5)) | 0

Sample 5 — target: CCNA2, cyclin fold, Cln2 fusion (human); technique: yeast growth competition, sequencing; matrix: yeast; setting: strong parent motif; reference: not given; reading: higher = stronger binding
Starting sequence: PKN2 docking peptide (human); VSAVQKLDFSDTM
Change | normalised enrichment score
VSAVQKIDFSDTM [L7I] | -0.176
VSAVQKEDFSDTM [L7E] | -0.385
VSAVQKLDNSDTM [F9N] | 0.0241
VSAVQPLDFSDTM [K6P] | -0.011
VSAVQKLDFSITM [D11I] | 0.81
VSAVQKLDFMDTM [S10M] | 1.3
VSAVQKPDFSDTM [L7P] | -0.18
VSAVQSLDFSDTM [K6S] | 1.8
VSAVQCLDFSDTM [K6C] | 1.4
VSAHQKLDFSDTM [V4H] | 1.14
VSAVQKLDFSLTM [D11L] | 1.74
VSAVQTLDFSDTM [K6T] | 0.338
VNAVQKLDFSDTM [S2N] | 2.29
VSAVQKLDFHDTM [S10H] | 0.841

Repeated from above (sample 4):
Molecule | lacZ reporter activity
B2 (RFWD3 RING domain) | 0
KETIKKTTKPCPRCHVPVEKNGGCMHMKCPQPQCRLEWCWNCGCEWNRVCMG (PRKN RING domain (UniProt O60260)) | 0
B3 (RNF121 RING domain) | 0
B4 (ZMIZ2 RING domain) | 0
NLSELTPYILCSICKGYLIDATTITECLHTFCKSCIVRHFYYSNRCPKCNIVVHQTQPLY (PCGF6 RING domain (UniProt Q9BYE7)) | 0
B5 (DZIP3 RING domain) | 0
B6 (SH3RF1 RING domain) | 0
